Published values collected from several papers.
Parts stem from different laboratories: compare values within a part only.
Chain of UniProt P53355 (whole entry, looked up): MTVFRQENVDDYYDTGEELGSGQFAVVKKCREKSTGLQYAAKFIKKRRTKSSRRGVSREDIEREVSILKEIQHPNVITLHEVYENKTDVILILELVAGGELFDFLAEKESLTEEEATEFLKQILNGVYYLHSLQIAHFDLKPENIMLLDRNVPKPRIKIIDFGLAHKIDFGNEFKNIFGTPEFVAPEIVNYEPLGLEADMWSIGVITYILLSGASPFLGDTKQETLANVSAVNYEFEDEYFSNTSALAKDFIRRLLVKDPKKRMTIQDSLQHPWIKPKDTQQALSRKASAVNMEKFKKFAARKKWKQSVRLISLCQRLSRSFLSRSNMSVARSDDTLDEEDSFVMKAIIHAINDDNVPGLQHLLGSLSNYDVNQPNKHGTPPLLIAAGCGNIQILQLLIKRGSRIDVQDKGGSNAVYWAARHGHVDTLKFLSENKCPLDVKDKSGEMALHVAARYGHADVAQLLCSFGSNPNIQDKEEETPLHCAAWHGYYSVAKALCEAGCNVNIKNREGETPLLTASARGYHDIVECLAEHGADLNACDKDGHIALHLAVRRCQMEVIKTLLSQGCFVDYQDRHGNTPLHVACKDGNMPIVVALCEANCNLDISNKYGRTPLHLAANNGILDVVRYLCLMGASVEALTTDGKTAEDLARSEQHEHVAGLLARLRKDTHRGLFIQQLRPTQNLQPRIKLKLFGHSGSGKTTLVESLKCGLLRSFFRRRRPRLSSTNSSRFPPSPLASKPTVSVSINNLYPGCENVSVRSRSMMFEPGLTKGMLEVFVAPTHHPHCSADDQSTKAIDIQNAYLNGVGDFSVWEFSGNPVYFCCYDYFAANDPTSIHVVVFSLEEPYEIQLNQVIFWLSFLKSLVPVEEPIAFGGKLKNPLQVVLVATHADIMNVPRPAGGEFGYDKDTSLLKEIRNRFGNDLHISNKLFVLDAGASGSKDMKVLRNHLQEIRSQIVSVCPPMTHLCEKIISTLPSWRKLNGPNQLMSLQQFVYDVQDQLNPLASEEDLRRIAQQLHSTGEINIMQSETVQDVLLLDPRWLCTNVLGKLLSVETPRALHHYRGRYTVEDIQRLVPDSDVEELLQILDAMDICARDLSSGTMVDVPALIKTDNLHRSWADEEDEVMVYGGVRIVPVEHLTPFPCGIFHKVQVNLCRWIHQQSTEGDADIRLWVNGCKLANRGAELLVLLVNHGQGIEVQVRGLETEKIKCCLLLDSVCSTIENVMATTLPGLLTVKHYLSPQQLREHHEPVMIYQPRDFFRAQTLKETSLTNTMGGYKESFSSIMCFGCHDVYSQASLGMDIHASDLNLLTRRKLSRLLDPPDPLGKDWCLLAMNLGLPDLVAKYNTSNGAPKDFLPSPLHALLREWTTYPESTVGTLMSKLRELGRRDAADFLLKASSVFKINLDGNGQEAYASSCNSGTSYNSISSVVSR
Chain of UniProt Q9UBF8 (whole entry, looked up): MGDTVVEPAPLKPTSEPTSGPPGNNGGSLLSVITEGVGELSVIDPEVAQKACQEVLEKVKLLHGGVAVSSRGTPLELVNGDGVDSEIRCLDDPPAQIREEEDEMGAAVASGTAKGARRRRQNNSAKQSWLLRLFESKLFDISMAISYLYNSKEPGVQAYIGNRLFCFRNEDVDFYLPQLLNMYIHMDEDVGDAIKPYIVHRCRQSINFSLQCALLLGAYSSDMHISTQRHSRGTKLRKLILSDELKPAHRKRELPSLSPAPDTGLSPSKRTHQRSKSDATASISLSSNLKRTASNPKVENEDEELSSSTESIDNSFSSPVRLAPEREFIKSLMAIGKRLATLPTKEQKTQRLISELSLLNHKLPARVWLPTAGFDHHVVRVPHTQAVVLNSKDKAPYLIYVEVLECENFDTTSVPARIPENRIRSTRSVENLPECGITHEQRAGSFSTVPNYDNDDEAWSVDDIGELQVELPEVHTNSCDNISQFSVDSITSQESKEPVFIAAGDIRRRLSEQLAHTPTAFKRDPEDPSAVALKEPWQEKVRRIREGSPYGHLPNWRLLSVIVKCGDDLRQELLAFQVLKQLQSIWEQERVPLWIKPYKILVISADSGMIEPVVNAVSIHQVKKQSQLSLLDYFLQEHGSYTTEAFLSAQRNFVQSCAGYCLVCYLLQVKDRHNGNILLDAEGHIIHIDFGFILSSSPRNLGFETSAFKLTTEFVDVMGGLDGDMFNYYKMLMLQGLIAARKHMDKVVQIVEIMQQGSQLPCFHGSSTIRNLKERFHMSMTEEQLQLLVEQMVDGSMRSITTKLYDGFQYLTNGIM
Chain of UniProt O75582 (whole entry, looked up): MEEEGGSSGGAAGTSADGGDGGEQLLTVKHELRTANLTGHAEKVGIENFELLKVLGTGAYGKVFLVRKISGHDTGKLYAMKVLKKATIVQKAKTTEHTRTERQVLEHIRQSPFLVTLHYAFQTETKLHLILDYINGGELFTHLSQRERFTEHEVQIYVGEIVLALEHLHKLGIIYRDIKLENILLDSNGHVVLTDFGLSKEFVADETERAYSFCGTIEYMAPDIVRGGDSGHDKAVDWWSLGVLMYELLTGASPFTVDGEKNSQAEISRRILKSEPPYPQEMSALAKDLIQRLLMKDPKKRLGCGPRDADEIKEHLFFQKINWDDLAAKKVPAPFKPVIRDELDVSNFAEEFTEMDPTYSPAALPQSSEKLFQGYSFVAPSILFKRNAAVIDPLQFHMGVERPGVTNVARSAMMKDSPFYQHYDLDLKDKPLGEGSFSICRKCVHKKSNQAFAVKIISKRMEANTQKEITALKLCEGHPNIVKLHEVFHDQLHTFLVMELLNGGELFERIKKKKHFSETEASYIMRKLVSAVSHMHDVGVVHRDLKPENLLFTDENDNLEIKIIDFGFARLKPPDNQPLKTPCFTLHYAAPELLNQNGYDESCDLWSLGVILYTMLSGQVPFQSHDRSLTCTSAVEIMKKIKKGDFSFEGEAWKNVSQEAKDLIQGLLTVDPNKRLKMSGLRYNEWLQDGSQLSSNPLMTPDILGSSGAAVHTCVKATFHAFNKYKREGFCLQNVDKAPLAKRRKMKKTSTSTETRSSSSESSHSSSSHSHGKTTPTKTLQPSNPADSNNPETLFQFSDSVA
Chain of UniProt P21127 (whole entry, looked up): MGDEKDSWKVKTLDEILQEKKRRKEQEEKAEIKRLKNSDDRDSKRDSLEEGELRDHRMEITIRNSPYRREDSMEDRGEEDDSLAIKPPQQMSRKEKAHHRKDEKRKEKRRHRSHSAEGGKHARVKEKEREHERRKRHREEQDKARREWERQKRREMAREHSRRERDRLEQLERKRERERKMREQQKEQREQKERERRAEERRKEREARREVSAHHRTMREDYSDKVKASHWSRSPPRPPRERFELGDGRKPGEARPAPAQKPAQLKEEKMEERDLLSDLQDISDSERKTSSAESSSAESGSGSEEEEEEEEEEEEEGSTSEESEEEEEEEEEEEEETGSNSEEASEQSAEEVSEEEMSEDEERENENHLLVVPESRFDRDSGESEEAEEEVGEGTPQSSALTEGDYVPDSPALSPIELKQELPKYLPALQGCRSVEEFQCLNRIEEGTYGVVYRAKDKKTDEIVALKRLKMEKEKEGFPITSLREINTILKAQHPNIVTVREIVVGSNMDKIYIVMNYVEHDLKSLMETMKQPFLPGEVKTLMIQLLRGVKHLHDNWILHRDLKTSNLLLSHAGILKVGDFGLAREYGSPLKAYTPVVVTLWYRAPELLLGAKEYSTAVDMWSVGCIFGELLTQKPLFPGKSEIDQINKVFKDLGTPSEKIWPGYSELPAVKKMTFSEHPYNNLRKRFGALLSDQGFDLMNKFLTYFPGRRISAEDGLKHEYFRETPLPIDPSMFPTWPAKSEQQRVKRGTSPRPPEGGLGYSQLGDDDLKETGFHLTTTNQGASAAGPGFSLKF

Series 1
SMILES: CN([C@@H]1CCc2c(CC(=O)O)c3cc(S(C)(=O)=O)ccc3n2C1)S(=O)(=O)c1ccc(F)cc1
Effect on: cell-free assay
Method: competition with immobilised ligand
Tested at: 1 µM
Measurement: remaining binding
target = Cyclin-dependent kinase 5 (CDK5, Homo sapiens, UniProt Q00535); value = 86%
target = LIM domain kinase 1 (LIMK1, Homo sapiens, UniProt P53667); value = 100%
target = Activin receptor type-2B (ACVR2B, Homo sapiens, UniProt Q13705); value = 100%
target = Serine/threonine-protein kinase B-raf (BRAF, Homo sapiens, UniProt P15056, V600E); value = 90%
target = Ribosomal protein S6 kinase alpha-5, C-terminal kinase domain (RPS6KA5, Homo sapiens, UniProt O75582); value = 71%
target = Tyrosine-protein kinase Mer (MERTK, Homo sapiens, UniProt Q12866); value = 100%
target = Serine/threonine-protein kinase LATS1 (LATS1, Homo sapiens, UniProt O95835); value = 61%
target = Death-associated protein kinase 1 (DAPK1, Homo sapiens, UniProt P53355); value = 100%
target = Mitotic checkpoint serine/threonine-protein kinase BUB1 (BUB1, Homo sapiens, UniProt O43683); value = 86%
target = Focal adhesion kinase 1 (PTK2, Homo sapiens, UniProt Q05397); value = 99%
target = Death-associated protein kinase 2 (DAPK2, Homo sapiens, UniProt Q9UIK4); value = 100%
target = Phosphatidylinositol 4-kinase beta (PI4KB, Homo sapiens, UniProt Q9UBF8); value = 98%
target = Cyclin-dependent kinase 11B (CDK11B, Homo sapiens, UniProt P21127); value = 100%

Series 2
Target: Ras GTPase-activating protein-binding protein 1, full length (G3BP1, Homo sapiens, UniProt Q13283)
Chain of UniProt Q13283 (whole entry, looked up): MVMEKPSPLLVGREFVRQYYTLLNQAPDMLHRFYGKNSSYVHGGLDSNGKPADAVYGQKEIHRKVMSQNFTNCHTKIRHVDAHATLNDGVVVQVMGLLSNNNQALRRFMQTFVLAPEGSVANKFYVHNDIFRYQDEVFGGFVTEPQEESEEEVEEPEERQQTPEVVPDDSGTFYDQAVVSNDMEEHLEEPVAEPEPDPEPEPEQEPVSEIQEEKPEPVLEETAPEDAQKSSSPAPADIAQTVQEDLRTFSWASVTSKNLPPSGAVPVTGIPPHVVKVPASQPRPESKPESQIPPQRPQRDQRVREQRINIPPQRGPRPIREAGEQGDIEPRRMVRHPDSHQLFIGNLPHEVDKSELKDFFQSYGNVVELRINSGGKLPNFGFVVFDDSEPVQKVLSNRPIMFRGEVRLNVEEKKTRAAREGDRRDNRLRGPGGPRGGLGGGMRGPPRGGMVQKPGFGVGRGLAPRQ
Method: RNA Bind-n-Seq
Form: RNA
Matrix: in vitro
Tested at: 200 nM
Notes: whole 134-nt RNA, ends assumed
Together with: 150 mM KCl
Relative to: input library
Reading: higher = stronger binding
Measurement: log2 enrichment
Constant ends, left off below: GGGAGUUCUACAGUCCGACGAUC … UGGAAUUCUCGGGUGUCAAGG
Sequence = GUCCUGUGCUACACAUCGUAUGUACCGAAUCGGGGAAAAAAGGAAAAAAGGAAAAAAGGAAAGUAUUAUGUUACGCCGUUCGGAUCUGCA; value = -0.855
Sequence = UGUGGCCGCAGGACGAGUACAUCGUGGAGUACUCACUAGAGUAUGGCUUCCUUCGCCUGUCGCAGGCCACCCGCCAGCGCCUGAGCAUCC; value = 0.103
Sequence = UCCUGUGCUACACAUCGUAUGUACCGAAUCGGGGAAAAAAGGAAAAAAGGAAAAAAGGGGAAAGUAUUAUGUUACGCCGUUCGGAUCUGC; value = -0.417
Sequence = AAGUCCUGUGCUACACAUCGUAUGUACCGAAUCGGGAGGGUUUUUUUGGGAAAGGGAAAGUAUUAUGUUACGCCGUUCGGAUCUGCACUU; value = -0.0432
Sequence = CCUGUGCUACACAUCGUAUGUACCGAAUCGGCCCCCCCGGCCCCCCCGGGGCCCCCCCGGAAAGUAUUAUGUUACGCCGUUCGGAUCUGC; value = -0.057
Sequence = UCCUGUGCUACACAUCGUAUGUACCGAAUCGGCCCCCCGGGCCCCCCGGGCCCCCCGGGAAAGUAUUAUGUUACGCCGUUCGGAUCUGCA; value = -0.975
Sequence = GCAGGAAGUAAAAACAAAUGGAAAUGCUUCGGAUAGUGGCAGGGGUGGGGGUUGCUAAGGAAAGGGUGGGAUGGGAAAAGGUAAAGAGUU; value = 0.779
Sequence = AGUCCUGUGCUACACAUCGUAUGUACCGAAUCGGCCCCCGGGGCCCCCGGCCCCCGGGAAAGUAUUAUGUUACGCCGUUCGGAUCUGCAC; value = -1.04

Series 3
Partner: ARF5 788-902 (Arabidopsis thaliana, UniProt P93024)
Method: two-hybrid
Relative to: out of 4 tests
Reading: higher = firmer interaction
Measurement: positive tests
B1: IAA33 (Arabidopsis thaliana, UniProt Q9FKM7); chain MNSFEPQSQDSLQRRFHQDNSTTQQPRDTTTPFIPKPASKNHNNSNSSSGAAGRSFQGFGLNVEDDLVSSVVPPVTVVLEGRSICQRISLDKHGSYQSLASALRQMFVDGADSTDDLDLSNAIPGHLIAYEDMENDLLLAGDLTWKDFVRVAKRIRILPVKGNTRQVKRNE
B2: ARF1 538-665 (Arabidopsis thaliana, UniProt Q8L7G0); chain SRQIRSCTKVHMQGSAVGRAIDLTRSECYEDLFKKLEEMFDIKGELLESTKKWQVVYTDDEDDMMMVGDDPWNEFCGMVRKIFIYTPEEVKKLSPKNKLAVNARMQLKADAEENGNTEGRSSSMAGSR
B3: IAA34 (Arabidopsis thaliana, UniProt Q9C5X0); chain MYCSDPPHPLHLVASDKQQKDHKLILSWKKPTMDSDPLGVFPNSPKYHPYYSQTTEFGGVIDLGLSLRTIQHEIYHSSGQRYCSNEGYRRKWGYVKVTMDGLVVGRKVCVLDHGSYSTLAHQLEDMFGMQSVSGLRLFQMESEFCLVYRDEEGLWRNAGDVPWNEFIESVERLRITRRNDAVLPF
Target sequence (chain): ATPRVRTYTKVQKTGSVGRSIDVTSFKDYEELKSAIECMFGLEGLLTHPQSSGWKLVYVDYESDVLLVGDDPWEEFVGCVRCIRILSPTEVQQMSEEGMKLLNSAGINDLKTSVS
Sequence = B1 (IAA33); value = 2
Sequence = B2 (ARF1 538-665); value = 0
Sequence = B3 (IAA34); value = 3

Series 4
Target: Tyrosine-protein kinase BTK (BTK, Homo sapiens, UniProt Q06187)
Chain of UniProt Q06187 (whole entry, looked up): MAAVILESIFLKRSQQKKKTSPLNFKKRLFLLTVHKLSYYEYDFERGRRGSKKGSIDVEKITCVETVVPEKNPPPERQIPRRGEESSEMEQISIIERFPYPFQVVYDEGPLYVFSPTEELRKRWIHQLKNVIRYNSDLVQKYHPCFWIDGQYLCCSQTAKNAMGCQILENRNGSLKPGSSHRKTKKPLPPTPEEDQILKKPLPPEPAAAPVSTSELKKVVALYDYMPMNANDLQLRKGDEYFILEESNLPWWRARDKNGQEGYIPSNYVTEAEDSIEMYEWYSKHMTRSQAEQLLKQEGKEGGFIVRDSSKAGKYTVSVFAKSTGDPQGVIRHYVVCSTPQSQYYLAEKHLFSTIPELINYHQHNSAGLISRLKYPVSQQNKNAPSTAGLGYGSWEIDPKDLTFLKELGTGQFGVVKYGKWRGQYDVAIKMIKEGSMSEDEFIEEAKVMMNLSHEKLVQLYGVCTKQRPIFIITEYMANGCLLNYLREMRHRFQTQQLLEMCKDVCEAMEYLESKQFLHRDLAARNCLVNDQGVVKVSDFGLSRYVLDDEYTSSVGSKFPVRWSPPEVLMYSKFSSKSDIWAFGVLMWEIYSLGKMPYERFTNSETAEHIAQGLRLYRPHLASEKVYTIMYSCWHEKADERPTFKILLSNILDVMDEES
Effect on: enzyme activity
Action: inhibitor
Tested at: 0.5 µM
Relative to: control
Measurement: remaining activity
SMILES = Nc1[nH]nc2nc3ccccc3nc12; value = 93.9%
SMILES = O=S(=O)(c1cccc2cnccc12)N1CCCNCC1; value = 96.5%
SMILES = Cn1c2ccccc2c2c3c(c4c5ccccc5n(CCC#N)c4c21)CNC3=O; value = 22%
SMILES = CN(C)c1ccc(C=C2C(=O)Nc3ccccc32)cc1; value = 104%
SMILES = COc1cc2nccc(Oc3ccc(NC(=S)NC(=O)c4ccccc4C)cc3)c2cc1OC; value = 28.4%
SMILES = COc1ccc(CNC(=O)Nc2ncc([N+](=O)[O-])s2)cc1; value = 102%
SMILES = Cc1ccc(NC(=O)c2ccc(CN3CCN(C)CC3)cc2)cc1Nc1nc(-c2cccnc2)cs1; value = 99.6%
SMILES = Cc1ccc(Nc2nccc(N(C)c3ccc4c(C)n(C)nc4c3)n2)cc1S(N)(=O)=O; value = 78.8%
SMILES = O=C1NC(=O)C(c2cn(CCCn3ccnc3)c3ccccc23)=C1Nc1ccccc1; value = 105%
SMILES = Cn1sc(=O)n(Cc2ccccc2)c1=O; value = 103%
SMILES = CNC(=O)c1cc(Oc2ccc(NC(=O)Nc3ccc(Cl)c(C(F)(F)F)c3)cc2)ccn1; value = 102%
SMILES = N#CC(C#N)=C(N)/C(C#N)=C/c1ccc(O)cc1; value = 99.7%
SMILES = NCCNc1ncc(C(N)=O)c(Nc2cccc(C(F)(F)F)c2)n1; value = 82.3%
SMILES = COc1ccc(C(=O)Nc2sc3c(c2C(N)=O)CCCC3)cc1OC; value = 104%

Repeated from above (series 1):
target = Death-associated protein kinase 1 (DAPK1, Homo sapiens, UniProt P53355); value = 100%
target = Activin receptor type-2B (ACVR2B, Homo sapiens, UniProt Q13705); value = 100%
target = Serine/threonine-protein kinase LATS1 (LATS1, Homo sapiens, UniProt O95835); value = 61%
target = Phosphatidylinositol 4-kinase beta (PI4KB, Homo sapiens, UniProt Q9UBF8); value = 98%
target = Serine/threonine-protein kinase B-raf (BRAF, Homo sapiens, UniProt P15056, V600E); value = 90%
target = Cyclin-dependent kinase 11B (CDK11B, Homo sapiens, UniProt P21127); value = 100%
